Experimental data of several laboratories.
Each line is one published result; not all experiments were run side by side. ± marks the error that the study gave.

With `CC(C)c1ccc2c(c1)CC[C@H]1[C@](C)(CN)CCC[C@]21C` the IC50 was 4.68 µM (SBcl2; cell growth or viability, MTS; 48 h).
`C[C@H]1CNCCc2ccc(Cl)cc21` has a plasma concentration of 99.2 ± 16 ng/mL (Sprague-Dawley rat, male, plasma; subcutaneous, 3 mg/kg, 15 min).
The AD50 of `C[C@@H]1N(C)C(C)(C)CO[C@@]1(O)c1cccc(Cl)c1` is reported as 0.016 mg/kg (nicotine antinociception blockade, antagonist, tail-flick test; mouse; 15 min pretreatment, with: nicotine 2.5 mg/kg subcutaneous).
The AD50 of `CC(NC(C)(C)C)C(=O)c1cccc(Cl)c1` (centres unmarked) is reported as 9.2 mg/kg (nicotine hypothermia, antagonist; mouse; with: nicotine 2.5 mg/kg s.c.).
`N#Cc1ccc(-c2ccc(-c3cccs3)s2)cc1F` has an inhibition of 104 ± 23.3% (Salmonella enterica; sodium azide mutagenicity; TA1535; 20 µM, 48 h, with: sodium azide 2 µg/plate co-exposure).
`Oc1cc2c(cc1O)C(c1ccccc1)CNCC2` (centres unmarked): “dose for full substitution” 18 to 32 mg/kg (cocaine-appropriate responding, drug discrimination; male rats trained on cocaine; intraperitoneal, BMS, with: cocaine 10 mg/kg training dose).
Under “cumulative testosterone release”, `neuropeptide Y` is recorded as 15.3 ± 2.3 ng/mL (rat, plasma; intratesticular, 2 µg/kg, with: hCG).
`O=C(c1ccc(F)cc1)N1CCc2nc(COc3ccccc3)oc2C1` has a fEPSP slope of 110 ± 4% (long-term potentiation; rat hippocampal SC-CA1 synapse; 10 µM, 20 min preincubation, 35 min post-TBS, with: threshold theta burst stimulation; reference: baseline).
Under antinociception, `Cc1cc(O)cc(C)c1C[C@H](N)C(=O)N[C@@H]1CCNc2ccc(CC3Cc4ccccc4C3)cc21` is recorded as “inactive” (warm water tail withdrawal; C57BL/6 mice; intraperitoneal, up to 10 mg/kg cumulative).
Under inhibition, `[C-]#[O+]` is recorded as “no inhibition” (benzocaine metabolism; human erythrocytes in plasma; concentration not given, 37 °C, with: benzocaine 3 µg/mL).
`picrotoxin` — result for “D1-MSN evoked IPSC on ChAT neurons”: “inhibited” (synaptic inhibitory current, inhibitor; ChAT neurons, mouse; dose not given, held at 0 mV, with: DNQX and APV).
`CN1CCCC2C(c3ccccc3)C(C3=NCCCC3)C(c3ccccc3)CC21` (centres unmarked): “lowest effective concentration” 100 µM ([3H]-dopamine release; rat striatal slices; reference: vehicle).
`C[C@H](Cn1cnc2c(N)ncnc21)OCP(=O)(O)O` gave an inhibition of 96% (human alphaherpesvirus 2; virus production; human monocytes/macrophages; 20 µg/mL, 6 days).
`CNC(C)Cc1ccc2c(c1)OCO2` (racemic) has a mood rating of 5 (visual analog scale, item: Friendly; human; oral, 0.75 mg/kg, mean over session, unit not given; reference: pre-dose baseline).
`COC1(C[S@@+]([O-])c2ccccc2)CCN(CCc2c[nH]c3ccc(F)cc23)CC1` — result for “colorectal pressure increase”: “inhibited” (antagonist; anaesthetised minipig; intravenous, 1 mg/kg, 15 min before agonist, with: LMN-NKA 100 µg/kg subcutaneous).
`CC[C@H](C)[C@H](NC(=O)[C@H](Cc1ccc(O)cc1)NC(=O)[C@@H]1CCCN1C(=O)[C@H](CCCNC(=N)N)NC(=O)[C@H](CCCNC(=N)N)NC(=O)[C@@H]1CCCN1C(=O)[C@H](CCCCN)NC(=O)[C@H](CSC1CC(=O)N(CCNC(=O)CCCCC[N+]2=C(C=CC=CC=C3N(CC)c4ccc5c(S(=O)(=O)O)cc(S(=O)(=O)[O-])cc5c4C3(C)C)C(C)(C)c3c2ccc2c(S(=O)(=O)O)cc(S(=O)(=O)O)cc32)C1=O)NC(=O)CN1CCN(CC(=O)O)CCN(CC(=O)O)CCN(CC(=O)O)CC1)C(=O)N[C@@H](CC(C)C)C(=O)O` (some centres unmarked) [copper-64 labelled] has a tumour uptake of 0.42 ± 0.05 %ID/g (PET imaging; HT-29 xenograft, male BALB/c nu/nu mice; intravenous, 4 h, with: 100 µg unlabelled neurotensin).
`N=C(N)NC(=O)c1nc(Cl)c(N2CCCCCC2)nc1N`: urine volume “no effect” (Sprague-Dawley rat; iv, 1.5 mg/kg, 6 h, with: acetazolamide 25 mg/kg; reference: acetazolamide alone).
For `C[C@@H]1O[C@@H](O[C@@H]2[C@@H](O)[C@H](OCCc3ccc(O)c(O)c3)O[C@H](CO)[C@H]2OC(=O)/C=C/c2ccc(O)c(O)c2)[C@H](O)[C@H](O)[C@H]1O`, the IC50 was 25.6 µM (ABTS scavenging, absorbance; 15 min).
The median survival of `O=C1C2=C(CCN(Cc3ccccc3)C2)N2CCN=C2N1Cc1ccc(C(F)(F)F)cc1` is reported as 82 days (PDX AML cells, NSG mice; 250 nM, 36 h, ex vivo treated cells engrafted).
`O=C(Nc1ccccc1)C1CCN(C(=O)Oc2cccnc2)CC1` — result for “mean difference vs placebo”: -2.24 µV (LEP N2-P2 amplitude; healthy women, capsaicin responders, capsaicin-treated skin; 100 mg, day 21; reference: placebo day 21).
`N=C(N)c1ccc(-c2ccc(-c3ccco3)o2)c(F)c1` has a mutant frequency of 29% (Salmonella enterica; TA1535; 20 µM, 48 h, with: sodium azide co-exposure; reference: sodium azide alone).
For `CN[C@@](C)(C[18F])C(=O)O`, the tracer uptake was 4.7 %ID/g (SK-OV-3 tumour model; host not given, liver; 15 min, tumour-bearing).
`O=c1[nH]cc(F)c(=O)[nH]1` — result for “mean survival time”: 16.6 days (Ehrlich ascites carcinoma mouse; dose not given).

Excerpt of the above:
Under antinociception, `Cc1cc(O)cc(C)c1C[C@H](N)C(=O)N[C@@H]1CCNc2ccc(CC3Cc4ccccc4C3)cc21` is recorded as “inactive” (warm water tail withdrawal; C57BL/6 mice; intraperitoneal, up to 10 mg/kg cumulative).
Under inhibition, `[C-]#[O+]` is recorded as “no inhibition” (benzocaine metabolism; human erythrocytes in plasma; concentration not given, 37 °C, with: benzocaine 3 µg/mL).
